Published values gathered from unrelated publications.
Parts stem from different laboratories: compare values within a part only. Values joined by “and” are separate records of one study, mostly repeats; a detail may differ.
Sequence of UniProt P08069 (whole entry, looked up): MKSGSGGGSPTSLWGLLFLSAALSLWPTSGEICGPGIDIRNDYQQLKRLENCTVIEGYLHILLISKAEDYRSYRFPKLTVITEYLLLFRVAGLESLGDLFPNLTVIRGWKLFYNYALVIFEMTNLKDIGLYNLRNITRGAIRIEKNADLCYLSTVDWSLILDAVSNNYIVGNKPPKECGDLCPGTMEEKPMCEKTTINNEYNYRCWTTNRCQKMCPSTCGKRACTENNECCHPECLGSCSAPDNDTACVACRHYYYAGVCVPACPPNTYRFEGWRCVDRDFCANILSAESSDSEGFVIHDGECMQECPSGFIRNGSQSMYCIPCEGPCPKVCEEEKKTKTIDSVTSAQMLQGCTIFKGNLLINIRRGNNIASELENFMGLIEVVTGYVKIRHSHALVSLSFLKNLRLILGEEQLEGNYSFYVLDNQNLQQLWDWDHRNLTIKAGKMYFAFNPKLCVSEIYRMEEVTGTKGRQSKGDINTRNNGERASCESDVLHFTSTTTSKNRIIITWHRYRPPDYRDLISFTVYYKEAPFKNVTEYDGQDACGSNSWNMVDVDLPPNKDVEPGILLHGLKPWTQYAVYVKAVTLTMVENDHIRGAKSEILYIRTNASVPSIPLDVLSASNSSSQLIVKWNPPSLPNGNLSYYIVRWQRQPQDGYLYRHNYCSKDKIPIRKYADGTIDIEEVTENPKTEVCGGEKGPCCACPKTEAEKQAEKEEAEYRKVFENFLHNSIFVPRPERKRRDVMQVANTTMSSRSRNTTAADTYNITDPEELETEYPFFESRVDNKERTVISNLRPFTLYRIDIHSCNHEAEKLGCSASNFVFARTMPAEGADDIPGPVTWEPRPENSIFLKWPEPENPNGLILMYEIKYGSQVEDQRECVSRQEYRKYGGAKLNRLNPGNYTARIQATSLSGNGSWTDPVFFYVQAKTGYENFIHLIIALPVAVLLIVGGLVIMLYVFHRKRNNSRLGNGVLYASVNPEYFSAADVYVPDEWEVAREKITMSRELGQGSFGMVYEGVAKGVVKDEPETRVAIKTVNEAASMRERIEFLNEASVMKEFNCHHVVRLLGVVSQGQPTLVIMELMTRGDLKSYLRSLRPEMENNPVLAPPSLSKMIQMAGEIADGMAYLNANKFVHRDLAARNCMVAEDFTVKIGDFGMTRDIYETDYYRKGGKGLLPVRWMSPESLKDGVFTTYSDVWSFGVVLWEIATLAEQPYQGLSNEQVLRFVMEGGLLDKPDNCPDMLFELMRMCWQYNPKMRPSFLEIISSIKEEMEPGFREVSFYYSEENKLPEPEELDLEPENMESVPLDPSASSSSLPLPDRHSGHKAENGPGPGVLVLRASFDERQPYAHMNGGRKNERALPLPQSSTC
Sequence of UniProt P04049 (whole entry, looked up): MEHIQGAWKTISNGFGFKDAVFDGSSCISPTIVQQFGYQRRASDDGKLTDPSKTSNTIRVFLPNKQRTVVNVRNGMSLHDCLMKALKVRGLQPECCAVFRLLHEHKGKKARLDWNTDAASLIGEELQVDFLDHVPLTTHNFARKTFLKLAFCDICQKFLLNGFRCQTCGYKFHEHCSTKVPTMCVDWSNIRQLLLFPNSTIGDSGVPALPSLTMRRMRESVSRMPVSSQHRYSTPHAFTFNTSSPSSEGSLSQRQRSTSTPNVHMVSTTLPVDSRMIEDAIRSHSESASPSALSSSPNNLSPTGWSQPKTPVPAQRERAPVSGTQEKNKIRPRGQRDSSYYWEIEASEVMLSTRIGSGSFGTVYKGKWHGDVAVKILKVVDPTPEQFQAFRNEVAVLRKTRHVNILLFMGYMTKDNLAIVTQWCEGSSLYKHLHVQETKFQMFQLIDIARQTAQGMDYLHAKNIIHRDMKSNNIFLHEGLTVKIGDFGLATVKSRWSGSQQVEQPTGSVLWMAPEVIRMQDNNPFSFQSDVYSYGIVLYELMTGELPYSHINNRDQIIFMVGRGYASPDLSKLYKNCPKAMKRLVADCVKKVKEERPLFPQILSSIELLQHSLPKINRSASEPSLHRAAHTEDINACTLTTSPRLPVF
Sequence of UniProt Q16584 (whole entry, looked up): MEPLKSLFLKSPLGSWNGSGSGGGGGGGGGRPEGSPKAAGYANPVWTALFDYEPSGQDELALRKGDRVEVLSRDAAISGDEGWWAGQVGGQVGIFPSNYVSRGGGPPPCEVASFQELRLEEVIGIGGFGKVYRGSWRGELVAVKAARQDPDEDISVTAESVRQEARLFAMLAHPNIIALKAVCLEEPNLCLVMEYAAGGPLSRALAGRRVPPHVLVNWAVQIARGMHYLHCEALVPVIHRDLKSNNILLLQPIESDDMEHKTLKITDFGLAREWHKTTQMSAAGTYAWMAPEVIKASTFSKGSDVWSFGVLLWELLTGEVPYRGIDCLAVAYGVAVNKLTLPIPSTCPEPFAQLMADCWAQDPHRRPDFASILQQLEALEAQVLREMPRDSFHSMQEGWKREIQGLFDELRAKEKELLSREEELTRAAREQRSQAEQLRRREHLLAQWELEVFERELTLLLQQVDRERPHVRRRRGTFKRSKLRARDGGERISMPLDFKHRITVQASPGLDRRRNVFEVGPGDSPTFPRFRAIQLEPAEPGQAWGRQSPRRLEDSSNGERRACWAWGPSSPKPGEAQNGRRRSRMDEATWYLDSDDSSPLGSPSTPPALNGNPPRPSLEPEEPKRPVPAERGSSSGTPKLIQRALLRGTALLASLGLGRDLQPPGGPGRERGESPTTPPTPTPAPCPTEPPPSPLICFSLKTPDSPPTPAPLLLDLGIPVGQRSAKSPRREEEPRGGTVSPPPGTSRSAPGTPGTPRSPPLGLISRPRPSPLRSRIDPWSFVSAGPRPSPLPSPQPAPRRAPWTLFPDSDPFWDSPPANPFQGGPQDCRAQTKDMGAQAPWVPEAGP
Sequence of UniProt P42681 (whole entry, looked up): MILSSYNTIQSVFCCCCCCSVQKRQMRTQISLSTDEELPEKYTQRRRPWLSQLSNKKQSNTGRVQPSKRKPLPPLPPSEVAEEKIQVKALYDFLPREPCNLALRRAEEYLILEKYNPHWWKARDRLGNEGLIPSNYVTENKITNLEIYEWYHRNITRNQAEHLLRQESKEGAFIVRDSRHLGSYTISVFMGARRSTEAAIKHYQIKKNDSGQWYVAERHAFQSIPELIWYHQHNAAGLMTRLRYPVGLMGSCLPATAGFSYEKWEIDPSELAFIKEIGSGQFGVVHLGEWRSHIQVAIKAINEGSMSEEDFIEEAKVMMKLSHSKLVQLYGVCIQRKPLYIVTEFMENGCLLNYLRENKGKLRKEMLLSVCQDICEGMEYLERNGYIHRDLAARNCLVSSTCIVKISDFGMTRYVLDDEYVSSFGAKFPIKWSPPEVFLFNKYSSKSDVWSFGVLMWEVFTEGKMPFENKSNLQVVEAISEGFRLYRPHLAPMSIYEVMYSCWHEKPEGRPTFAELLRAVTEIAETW
Sequence of UniProt Q9Y4K4 (whole entry, looked up): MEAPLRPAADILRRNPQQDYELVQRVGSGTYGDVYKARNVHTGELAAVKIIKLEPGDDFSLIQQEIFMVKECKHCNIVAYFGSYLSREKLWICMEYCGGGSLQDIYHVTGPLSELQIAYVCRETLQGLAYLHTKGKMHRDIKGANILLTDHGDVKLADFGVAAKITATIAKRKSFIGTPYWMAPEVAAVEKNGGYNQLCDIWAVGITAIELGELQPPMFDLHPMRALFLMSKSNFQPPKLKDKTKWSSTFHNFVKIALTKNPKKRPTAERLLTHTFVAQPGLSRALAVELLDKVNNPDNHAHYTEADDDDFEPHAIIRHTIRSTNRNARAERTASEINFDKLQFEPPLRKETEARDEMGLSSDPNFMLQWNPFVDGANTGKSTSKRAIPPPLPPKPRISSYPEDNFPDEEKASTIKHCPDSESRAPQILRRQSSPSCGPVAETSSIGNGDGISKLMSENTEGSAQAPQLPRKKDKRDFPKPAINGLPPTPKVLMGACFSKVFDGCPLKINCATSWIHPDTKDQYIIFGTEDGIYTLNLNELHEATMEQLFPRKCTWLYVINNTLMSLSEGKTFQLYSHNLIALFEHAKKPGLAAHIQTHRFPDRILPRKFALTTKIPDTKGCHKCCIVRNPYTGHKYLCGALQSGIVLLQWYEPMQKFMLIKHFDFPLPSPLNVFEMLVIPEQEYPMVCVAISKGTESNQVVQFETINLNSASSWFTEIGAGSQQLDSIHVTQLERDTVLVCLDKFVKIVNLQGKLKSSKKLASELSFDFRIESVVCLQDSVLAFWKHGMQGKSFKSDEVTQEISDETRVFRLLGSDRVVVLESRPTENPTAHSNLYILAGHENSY
Sequence of UniProt Q9H3Y6 (whole entry, looked up): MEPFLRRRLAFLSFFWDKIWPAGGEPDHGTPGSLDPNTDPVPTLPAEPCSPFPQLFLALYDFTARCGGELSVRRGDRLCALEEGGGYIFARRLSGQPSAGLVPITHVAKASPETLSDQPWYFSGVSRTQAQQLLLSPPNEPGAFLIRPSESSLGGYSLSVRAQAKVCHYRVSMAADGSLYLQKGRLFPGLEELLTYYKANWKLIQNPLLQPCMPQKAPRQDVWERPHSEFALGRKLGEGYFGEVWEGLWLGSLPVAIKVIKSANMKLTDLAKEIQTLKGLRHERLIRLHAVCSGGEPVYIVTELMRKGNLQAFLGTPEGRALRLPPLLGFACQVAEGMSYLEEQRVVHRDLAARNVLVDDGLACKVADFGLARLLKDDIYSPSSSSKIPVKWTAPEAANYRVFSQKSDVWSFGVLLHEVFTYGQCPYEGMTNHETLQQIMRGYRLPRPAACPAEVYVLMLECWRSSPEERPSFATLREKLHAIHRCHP
Sequence of UniProt Q8N752 (whole entry, looked up): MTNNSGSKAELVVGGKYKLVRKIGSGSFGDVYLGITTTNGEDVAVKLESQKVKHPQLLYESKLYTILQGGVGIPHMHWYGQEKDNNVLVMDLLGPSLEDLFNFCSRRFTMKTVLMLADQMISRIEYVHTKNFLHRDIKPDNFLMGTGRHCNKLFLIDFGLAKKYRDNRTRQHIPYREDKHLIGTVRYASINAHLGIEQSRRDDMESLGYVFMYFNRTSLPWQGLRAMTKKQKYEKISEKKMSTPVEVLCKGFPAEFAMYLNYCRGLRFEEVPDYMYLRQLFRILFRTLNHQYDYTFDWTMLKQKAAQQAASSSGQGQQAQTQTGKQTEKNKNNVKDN

Series 1
SMILES: CC(C)C[C@@H]1NC(=O)[C@@H](N(C)C(=O)[C@@H](NC(=O)[C@@H]2C[C@@H](F)CN2C(=O)C2(C(F)(F)F)CC(F)(F)C2)C2CC2)CCCCCCCN(C)C(=O)[C@H](Cc2cc(Cl)cnc2OC2CC2)N(C)C1=O
Host: mouse, sample A SCLC PDX
Route: oral
Dose: 100 mg/kg three times daily
| conditions | tumour volume |
| --- | --- |
| day 28 | 395 mm3 and 248 mm3 and 300 mm3 and 426 mm3 |
| day 11 | 206 mm3 and 128 mm3 and 144 mm3 and 216 mm3 and 147 mm3 |
| day 4 | 149 mm3 and 166 mm3 and 201 mm3 and 123 mm3 |
| day 14 | 248 mm3 and 221 mm3 and 145 mm3 and 154 mm3 and 167 mm3 |

Series 2
SMILES: COc1cc(-c2nc3ccc(C(=O)NCCCN4CCN(c5cccc(C)c5C)CC4)cc3n2C2CCC2)cc(OC)c1OC
| target | test | conditions | remaining binding |
| --- | --- | --- | --- |
| MAP4K5 (Homo sapiens, UniProt Q9Y4K4) | binding, competition with immobilised ligand | 1 µM | 93% |
| SRMS (Homo sapiens, UniProt Q9H3Y6) | binding, competition with immobilised ligand | 1 µM | 69% |
| MAPK3 (Homo sapiens, UniProt P27361) | binding, competition with immobilised ligand | 1 µM | 81% |
| RET (Homo sapiens, UniProt P07949, V804M) | binding, competition with immobilised ligand | 1 µM | 98% |
| TXK (Homo sapiens, UniProt P42681) | binding, competition with immobilised ligand | 1 µM | 67% |
| NEK11 (Homo sapiens, UniProt Q8NG66) | KINOMEscan | 1000 nM | 81% |
| IGF1R (Homo sapiens, UniProt P08069) | binding, competition with immobilised ligand | 1 µM | 77% |
| Tyrosine-protein kinase ABL1, non-phosphorylated (ABL1, Homo sapiens, UniProt P00519, F317L) | binding, competition with immobilised ligand | 1 µM | 67% |

Series 3
SMILES: CCC1(c2cccc(-c3cn(C)nc3C)c2)C2=C(Nc3n[nH]cc31)C(F)C(C)(C)CC2=O (single isomer, unassigned)
Concentration: 1 µM
| target | test | how to read | remaining binding [%] |
| --- | --- | --- | --- |
| CSNK1A1L (Homo sapiens, UniProt Q8N752) | kinase binding, KINOMEscan | baseline: DMSO control | 100 |
| FLT1 (Homo sapiens, UniProt P17948) | binding, competition with immobilised ligand | – | 100 |
| MTOR (Homo sapiens, UniProt P42345) | binding, competition with immobilised ligand | – | 57 |
| EGFR (Homo sapiens, UniProt P00533, L858R) | binding, competition with immobilised ligand | – | 99 |
| RAF1 (Homo sapiens, UniProt P04049) | binding, competition with immobilised ligand | – | 97 |
| MAP3K11 (Homo sapiens, UniProt Q16584) | binding, competition with immobilised ligand | – | 100 |
| PTK2 (Homo sapiens, UniProt Q05397) | binding, competition with immobilised ligand | – | 100 |
| Tyrosine-protein kinase ABL1, phosphorylated (ABL1, Homo sapiens, UniProt P00519, T315I) | binding, competition with immobilised ligand | – | 99 |

Single results of other studies
| SMILES | system | conditions | endpoint | result |
| --- | --- | --- | --- | --- |
| Cn1cc(-c2cccc(CN3CCC4(CC3)COc3c4ccc4c3CN([C@H]3CCC(=O)NC3=O)C4=O)c2)cn1 | rats | intravenous, 1.02 mg/kg | steady-state volume of distribution | 2.96 L/kg |

Some of these lines once more (series 1):
| conditions | tumour volume |
| --- | --- |
| day 14 | 248 mm3 and 221 mm3 and 145 mm3 and 154 mm3 and 167 mm3 |
| day 4 | 149 mm3 and 166 mm3 and 201 mm3 and 123 mm3 |
